Measured values of several laboratories.
Protocols differ between the studies behind these lines.
Organism: Escherichia coli

Compound | assay | system | conditions | MIC
COc1cc(Cc2cnc(N)nc2N)cc(OC)c1OC |  | ATCC 25922 |  | 5 µM
CC(C)Oc1c(NC(=O)c2ccc(N3C(=O)C[C@H](NC(=O)c4ccc(NC(=O)c5ccc(C#N)cc5)cc4)C3=O)cc2)ccc(C(=O)N/N=C/c2cccn2C)c1O |  | BW25113 | 18 h, 37 °C, irradiated at 365 nm, photostationary state | 0.84 µg/mL
C[C@@H]1O[C@@H]1P(=O)(O)O | broth microdilution | ATCC 25922 | 5% CO2 | 0.5 µg/mL
Oc1c(Br)cc(Br)c2nc3ccccc3nc12 |  |  |  | > 100 µM
CC(C)Oc1c(NC(=O)c2ccc(N3C(=O)C[C@H](NC(=O)c4ccc(NC(=O)c5ccc(C#N)cc5)cc4)C3=O)cc2)ccc(C(=O)N/N=C/c2cnn(C)c2)c1O |  | BW25113 | 18 h, 37 °C, irradiated at 365 nm, photostationary state | 0.33 µg/mL
CC[C@H]1OC(=O)C[C@@H](O)[C@H](C)[C@@H](O[C@@H]2O[C@H](C)[C@@H](O[C@H]3C[C@@](C)(O)[C@@H](O)[C@H](C)O3)[C@H](N(C)C)[C@H]2O)[C@@H](CC=O)C[C@@H](C)C(=O)/C=C/C(C)=C/[C@@H]1CO[C@@H]1O[C@H](C)[C@@H](O)[C@@H](OC)[C@H]1OC |  | ATCC 25922 |  | 320 µM
CC[C@H](C)[C@H](NC(=O)CN)C(=O)N[C@@H](CC(C)C)C(=O)N[C@@H](CC(=O)O)C(=O)N[C@@H](C)C(=O)N[C@H](C(=O)N[C@@H](CCCCN)C(=O)N[C@@H](C)C(=O)N[C@H](C(=O)N[C@@H](C)C(=O)N[C@@H](CCCCN)C(=O)N[C@@H](C)C(=O)N[C@@H](C)C(=O)NCC(N)=O)[C@@H](C)CC)[C@@H](C)CC |  | ATCC 25922, Mueller-Hinton broth | 12 h, 37 °C | 128 µg/mL
CC[C@H]1OC(=O)[C@H](C)[C@@H](O[C@H]2C[C@@](C)(OC)[C@@H](O)[C@H](C)O2)[C@H](C)[C@@H](O[C@@H]2O[C@H](C)C[C@H](N(C)C)[C@H]2O)[C@](C)(O)C[C@@H](C)CN(C)[C@H](C)[C@@H](O)[C@]1(C)O | broth microdilution |  | 18 h | 16 µg/mL
C=C[C@]1(C)C[C@@H](OC(=O)CSCCN(CC)CC)[C@]2(C)[C@H](C)CC[C@]3(CCC(=O)[C@H]32)[C@@H](C)[C@@H]1O |  | ATCC 25922 |  | > 40 µM
CO/N=C(\C(=O)N[C@@H]1C(=O)N2C(C(=O)O)=C(COC(C)=O)CS[C@H]12)c1csc(N)n1 | broth microdilution | ATCC 25922 | 5% CO2 | 0.06 µg/mL
N=C(N)c1ccc(OCc2ccc3ccc(COc4ccc(C(=N)N)cc4)cc3c2)cc1 |  | BW25113 | compound alone | 200 µg/mL
O=C(Cc1ccccc1)N[C@@H]1C(=O)N2C(C(=O)O)=C(CSc3cccc4cccnc34)CS[C@H]12 |  | 25922 |  | 128 µg/mL
CO/N=C(\C(=O)N[C@@H]1C(=O)N2C(C(=O)O)=C(COC(C)=O)CS[C@H]12)c1csc(N)n1 | broth microdilution |  | 24 h, 37 °C, clinical isolate | > 400 µM
CC[C@H](C)[C@H](N)C(=O)N[C@@H](CC(C)C)C(=O)N1CCC[C@H]1C(=O)N[C@@H](Cc1c[nH]c2ccccc12)C(=O)N[C@@H](CCCCN)C(=O)N[C@@H](Cc1c[nH]c2ccccc12)C(=O)N1CCC[C@H]1C(=O)N[C@@H](Cc1c[nH]c2ccccc12)C(=O)N[C@@H](Cc1c[nH]c2ccccc12)C(=O)N1CCC[C@H]1C(=O)N[C@@H](Cc1c[nH]c2ccccc12)C(=O)N[C@@H](CCCNC(=N)N)C(=O)N[C@@H](CCCNC(=N)N)C(=O)O | broth dilution | K12 BW25113 | 18 h, 37 °C | 10.4 µM
COc1c(N2C[C@@H]3CCCN[C@@H]3C2)c(F)cc2c(=O)c(C(=O)O)cn(C3CC3)c12 | broth microdilution | G92 | 18 h | 0.125 µg/mL
CC1(C)SC2C(NC(=O)C(NC(=O)C3=C(O)CNC3=O)c3ccccc3)C(=O)N2C1C(=O)O (centres unmarked) | broth microdilution | ATCC 25922 wild type | no clavulanic acid | 12.5 µg/mL

Compound | assay | system | conditions | MIC
CC(=O)Nc1ccc(/C=N/NC(=O)c2ccc(NC(=O)c3ccc(N4C(=O)C[C@H](NC(=O)c5ccc(NC(=O)c6ccc(C#N)cc6)cc5)C4=O)cc3)c(OC(C)C)c2O)cc1 |  | BW25113 | 18 h, 37 °C, irradiated at 365 nm, photostationary state | 0.1 µg/mL
Cc1cc(-c2cn[nH]c2-c2cccc(OCc3cccc(C#N)c3)c2)cc(C)n1 | broth microdilution | ATCC 25922 |  | 1 µg/mL
N=C(N)c1ccc(OCCCOc2ccc(C(=N)N)cc2)cc1 |  | BW25113 | compound alone, together with: erythromycin checkerboard | 200 µg/mL
CO[C@H]1/C=C/O[C@@]2(C)Oc3c(C)c(O)c4c(O)c(c(/C=N/N5CCN(C)CC5)c(O)c4c3C2=O)NC(=O)/C(C)=C\C=C\[C@H](C)[C@H](O)[C@@H](C)[C@@H](O)[C@@H](C)[C@H](OC(C)=O)[C@@H]1C | broth microdilution OD600 | Mueller-Hinton broth | 24 h, 37 °C, together with: 1 mM MgCl2 | 16 µM
CC[C@H](C)CCCCC(=O)N[C@@H](CCN)C(=O)N[C@H](C(=O)N[C@@H](CCN)C(=O)N[C@H]1CCNC(=O)[C@H]([C@@H](C)O)NC(=O)[C@H](CCN)NC(=O)[C@H](CCN)NC(=O)[C@H](CC(C)C)NC(=O)[C@@H](CC(C)C)NC(=O)[C@H](CCN)NC1=O)[C@@H](C)O |  | ATCC 25922 | together with: LPS 1 mg/mL | > 14 µM
C[C@H]1COc2c(N3CCN(C)CC3)c(F)cc3c(=O)c(C(=O)O)cn1c23 | broth microdilution | ATCC 25922 | 5% CO2 | 0.03 µg/mL
CN(C)c1ccc2nc3ccc(=[N+](C)C)cc-3sc2c1 |  | ATCC 25922 | 18 h, 37 °C, LED irradiation 10 min | > 128 µM
C[C@@H](O)[C@H]1C(=O)N2C(C(=O)O)=C(S[C@@H]3CN[C@H](C(=O)N(C)C)C3)[C@H](C)[C@H]12 |  | ATCC 25922 |  | 0.31 µM
N=C(N)c1ccc(OCCCCCCCCCCCOc2ccc(C(=N)N)cc2)cc1 |  | BW25113 | compound alone, rifampicin checkerboard | > 25 µg/mL
CC1(C)S[C@@H]2[C@H](NC(=O)[C@H](N)c3ccccc3)C(=O)N2[C@H]1C(=O)O |  | DH5α |  | 8.6 µg/mL
Cc1c(CN(C)C(=O)/C=C/c2cnc3c(c2)CC(NC(=O)OC(C)(C)C)C(=O)N3)oc2ccccc12 (centres unmarked) | broth microdilution | AR-0085 |  | > 32 µg/mL
CC[C@H]1OC(=O)[C@H](C)[C@@H](O[C@H]2C[C@@](C)(OC)[C@@H](O)[C@H](C)O2)[C@H](C)[C@@H](O[C@@H]2O[C@H](C)C[C@H](N(C)C)[C@H]2O)[C@](C)(O)C[C@@H](C)CN[C@H](C)[C@@H](O)[C@]1(C)O |  | ATCC 25922 |  | 10 µM
C=C/C=C(\C)CC[C@H]1C[C@H](O)CC(=O)O1 | broth microdilution | KCTC 2571 | 37 °C, Mueller-Hinton broth | 128 µg/mL
N=C(N)c1ccc(OCc2ccccc2COc2ccc(C(=N)N)cc2)cc1 |  | 552100 | compound alone | > 200 µg/mL
NC[C@H]1O[C@H](O[C@H]2[C@H](O)[C@@H](O[C@H]3O[C@H](CO)[C@@H](O)[C@H](N)[C@H]3O)[C@H](N)C[C@@H]2N)[C@H](O)[C@@H](O)[C@@H]1O | broth microdilution | G92 | 18 h | 512 µg/mL
CCn1cc(C(=O)O)c(=O)c2ccc(C)nc21 |  | ATCC 25922 |  | 20 µM
